Assay results of several laboratories.
Numbered parts are unrelated; each lists some results of a single study. “And” joins repeats or separate records; there may be more than shown.
UniProt Q9Y2I7, sequence (whole entry, looked up): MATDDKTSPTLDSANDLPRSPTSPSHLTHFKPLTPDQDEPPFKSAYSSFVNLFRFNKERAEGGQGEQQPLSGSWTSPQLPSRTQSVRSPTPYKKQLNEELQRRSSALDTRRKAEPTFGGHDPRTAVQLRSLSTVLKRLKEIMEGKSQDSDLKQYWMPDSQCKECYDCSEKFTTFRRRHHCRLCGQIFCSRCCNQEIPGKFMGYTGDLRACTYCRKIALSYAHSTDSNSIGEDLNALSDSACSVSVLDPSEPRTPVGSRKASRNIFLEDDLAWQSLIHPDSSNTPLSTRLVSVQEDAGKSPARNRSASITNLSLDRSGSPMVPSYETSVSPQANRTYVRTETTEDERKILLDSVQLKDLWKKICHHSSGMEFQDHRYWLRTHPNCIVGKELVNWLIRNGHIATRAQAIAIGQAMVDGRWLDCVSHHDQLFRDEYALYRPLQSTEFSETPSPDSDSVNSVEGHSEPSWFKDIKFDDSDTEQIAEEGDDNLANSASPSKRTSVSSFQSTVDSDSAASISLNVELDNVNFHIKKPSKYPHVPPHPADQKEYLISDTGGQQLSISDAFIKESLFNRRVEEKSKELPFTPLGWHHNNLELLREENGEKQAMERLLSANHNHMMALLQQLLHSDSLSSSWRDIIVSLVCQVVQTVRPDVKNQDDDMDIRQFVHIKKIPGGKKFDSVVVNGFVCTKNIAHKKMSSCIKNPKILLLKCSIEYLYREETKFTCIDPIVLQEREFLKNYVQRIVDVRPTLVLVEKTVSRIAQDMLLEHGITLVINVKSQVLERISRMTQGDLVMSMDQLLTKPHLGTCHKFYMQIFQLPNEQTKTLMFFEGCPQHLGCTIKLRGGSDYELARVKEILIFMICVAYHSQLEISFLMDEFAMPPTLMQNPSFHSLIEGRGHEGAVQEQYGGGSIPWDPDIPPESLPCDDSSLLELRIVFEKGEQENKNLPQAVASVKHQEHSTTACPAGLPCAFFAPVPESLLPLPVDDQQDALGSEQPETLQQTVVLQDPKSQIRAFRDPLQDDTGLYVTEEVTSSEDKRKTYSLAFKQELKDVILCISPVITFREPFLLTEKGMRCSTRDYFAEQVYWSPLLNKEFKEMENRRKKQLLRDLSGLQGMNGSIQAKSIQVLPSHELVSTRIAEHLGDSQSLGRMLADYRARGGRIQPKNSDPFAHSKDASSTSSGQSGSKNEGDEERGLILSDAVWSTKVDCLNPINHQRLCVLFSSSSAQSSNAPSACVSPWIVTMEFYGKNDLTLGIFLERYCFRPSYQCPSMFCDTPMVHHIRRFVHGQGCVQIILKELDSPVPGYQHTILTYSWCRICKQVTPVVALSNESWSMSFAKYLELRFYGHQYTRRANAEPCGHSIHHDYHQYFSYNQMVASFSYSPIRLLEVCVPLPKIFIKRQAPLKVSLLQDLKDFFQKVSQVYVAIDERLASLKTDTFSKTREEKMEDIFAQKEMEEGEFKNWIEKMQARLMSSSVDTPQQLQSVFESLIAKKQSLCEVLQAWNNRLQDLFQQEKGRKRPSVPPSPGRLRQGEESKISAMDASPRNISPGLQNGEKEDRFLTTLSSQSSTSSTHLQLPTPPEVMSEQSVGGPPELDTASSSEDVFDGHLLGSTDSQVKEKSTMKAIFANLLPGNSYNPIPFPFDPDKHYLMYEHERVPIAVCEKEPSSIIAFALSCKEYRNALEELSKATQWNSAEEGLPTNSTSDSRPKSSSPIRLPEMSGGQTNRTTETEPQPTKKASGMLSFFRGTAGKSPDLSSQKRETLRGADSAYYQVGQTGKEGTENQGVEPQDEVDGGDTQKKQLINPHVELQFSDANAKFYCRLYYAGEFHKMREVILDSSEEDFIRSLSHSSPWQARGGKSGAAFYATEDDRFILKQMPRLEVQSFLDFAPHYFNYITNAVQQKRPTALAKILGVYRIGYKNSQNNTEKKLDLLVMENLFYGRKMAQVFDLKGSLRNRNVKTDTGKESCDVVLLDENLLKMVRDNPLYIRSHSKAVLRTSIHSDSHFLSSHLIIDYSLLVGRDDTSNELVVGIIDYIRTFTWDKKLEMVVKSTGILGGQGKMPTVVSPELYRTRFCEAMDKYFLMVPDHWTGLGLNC
UniProt Q13470, sequence (whole entry, looked up): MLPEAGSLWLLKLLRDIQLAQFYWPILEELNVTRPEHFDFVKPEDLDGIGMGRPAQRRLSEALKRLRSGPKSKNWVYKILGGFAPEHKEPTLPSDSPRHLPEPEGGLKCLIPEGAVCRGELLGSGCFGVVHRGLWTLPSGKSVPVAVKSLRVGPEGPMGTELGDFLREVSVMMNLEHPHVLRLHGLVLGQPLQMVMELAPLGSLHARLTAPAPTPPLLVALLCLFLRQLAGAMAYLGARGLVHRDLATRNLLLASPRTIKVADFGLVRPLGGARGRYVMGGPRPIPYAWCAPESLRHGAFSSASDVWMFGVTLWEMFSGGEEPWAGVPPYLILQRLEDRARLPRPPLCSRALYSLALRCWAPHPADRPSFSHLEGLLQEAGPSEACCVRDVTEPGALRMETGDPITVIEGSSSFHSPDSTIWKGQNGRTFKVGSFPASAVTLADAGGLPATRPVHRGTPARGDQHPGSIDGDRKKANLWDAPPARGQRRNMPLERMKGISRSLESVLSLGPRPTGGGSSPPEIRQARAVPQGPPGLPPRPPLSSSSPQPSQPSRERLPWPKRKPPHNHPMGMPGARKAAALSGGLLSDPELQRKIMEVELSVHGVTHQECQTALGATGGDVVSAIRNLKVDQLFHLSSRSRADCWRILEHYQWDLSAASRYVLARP
UniProt P43403, sequence (whole entry, looked up): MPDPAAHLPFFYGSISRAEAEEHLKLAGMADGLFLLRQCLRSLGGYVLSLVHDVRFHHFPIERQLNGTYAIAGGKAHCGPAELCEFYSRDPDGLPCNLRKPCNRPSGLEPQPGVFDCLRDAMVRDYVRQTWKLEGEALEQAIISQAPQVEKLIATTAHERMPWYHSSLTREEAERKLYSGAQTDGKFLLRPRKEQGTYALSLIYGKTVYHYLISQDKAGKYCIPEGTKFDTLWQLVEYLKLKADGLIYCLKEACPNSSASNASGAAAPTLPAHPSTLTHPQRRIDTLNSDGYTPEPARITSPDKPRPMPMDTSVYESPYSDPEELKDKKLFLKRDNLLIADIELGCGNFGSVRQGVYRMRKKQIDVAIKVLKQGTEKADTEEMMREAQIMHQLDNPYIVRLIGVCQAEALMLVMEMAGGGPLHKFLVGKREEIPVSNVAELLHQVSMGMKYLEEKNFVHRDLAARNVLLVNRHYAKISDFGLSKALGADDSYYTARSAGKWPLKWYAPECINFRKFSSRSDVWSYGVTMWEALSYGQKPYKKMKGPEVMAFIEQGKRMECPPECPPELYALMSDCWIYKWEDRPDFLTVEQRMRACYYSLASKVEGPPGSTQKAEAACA
UniProt Q16512, sequence (whole entry, looked up): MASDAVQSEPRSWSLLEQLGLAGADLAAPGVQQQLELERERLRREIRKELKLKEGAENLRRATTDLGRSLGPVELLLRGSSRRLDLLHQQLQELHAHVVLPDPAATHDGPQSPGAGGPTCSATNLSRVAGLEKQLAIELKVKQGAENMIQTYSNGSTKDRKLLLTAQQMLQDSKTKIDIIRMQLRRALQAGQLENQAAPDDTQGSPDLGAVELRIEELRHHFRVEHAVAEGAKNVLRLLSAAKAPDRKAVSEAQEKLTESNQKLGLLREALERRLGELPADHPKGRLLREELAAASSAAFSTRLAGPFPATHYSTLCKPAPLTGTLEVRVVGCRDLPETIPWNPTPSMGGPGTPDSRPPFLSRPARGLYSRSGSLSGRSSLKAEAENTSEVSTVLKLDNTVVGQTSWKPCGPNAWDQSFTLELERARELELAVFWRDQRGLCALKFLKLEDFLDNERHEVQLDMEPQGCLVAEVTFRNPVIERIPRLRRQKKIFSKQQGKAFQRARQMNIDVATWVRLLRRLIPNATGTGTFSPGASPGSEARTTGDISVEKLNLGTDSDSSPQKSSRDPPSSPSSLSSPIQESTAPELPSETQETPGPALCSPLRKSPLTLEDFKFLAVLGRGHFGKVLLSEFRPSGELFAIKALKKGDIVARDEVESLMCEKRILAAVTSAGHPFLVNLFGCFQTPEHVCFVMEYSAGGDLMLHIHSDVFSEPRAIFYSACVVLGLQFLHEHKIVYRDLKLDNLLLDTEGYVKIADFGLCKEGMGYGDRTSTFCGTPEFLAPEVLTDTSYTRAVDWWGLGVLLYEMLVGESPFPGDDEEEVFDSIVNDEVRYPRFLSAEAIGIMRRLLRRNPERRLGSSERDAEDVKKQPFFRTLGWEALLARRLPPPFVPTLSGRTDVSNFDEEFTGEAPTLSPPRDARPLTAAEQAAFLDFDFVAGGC
UniProt P61075, sequence (whole entry, looked up): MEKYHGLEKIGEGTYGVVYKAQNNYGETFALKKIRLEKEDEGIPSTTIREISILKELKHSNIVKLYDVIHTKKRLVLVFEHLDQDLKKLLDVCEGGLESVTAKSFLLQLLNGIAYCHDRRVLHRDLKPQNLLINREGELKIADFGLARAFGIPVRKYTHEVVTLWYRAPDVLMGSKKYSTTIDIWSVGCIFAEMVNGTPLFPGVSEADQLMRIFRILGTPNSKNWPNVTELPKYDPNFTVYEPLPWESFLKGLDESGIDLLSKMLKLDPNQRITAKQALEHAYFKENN
UniProt Q8IU85, sequence (whole entry, looked up): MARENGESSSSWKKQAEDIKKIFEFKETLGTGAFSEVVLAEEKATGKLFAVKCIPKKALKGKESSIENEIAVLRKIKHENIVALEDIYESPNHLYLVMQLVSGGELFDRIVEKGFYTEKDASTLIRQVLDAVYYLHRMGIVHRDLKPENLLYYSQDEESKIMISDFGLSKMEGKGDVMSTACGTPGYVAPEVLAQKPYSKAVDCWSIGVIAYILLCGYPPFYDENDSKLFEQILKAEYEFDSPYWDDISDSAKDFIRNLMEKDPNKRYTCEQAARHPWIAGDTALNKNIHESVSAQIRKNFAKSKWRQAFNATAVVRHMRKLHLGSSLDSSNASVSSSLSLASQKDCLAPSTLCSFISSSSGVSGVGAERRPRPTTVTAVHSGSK

Set 1 — cell line: MDA-MB-231; observed: cell viability; technique: CellCounting-Lite; concentration: 24.69 nM; temperature: 37 °C; direction: higher = more viable cells
SMILES | luminescence signal
Cn1cc(-n2cnc3c(NCc4nc5cc(Cl)c(Cl)cc5[nH]4)nc(N4CCNCC4)nc32)cn1 | 323000 a.u. and 412000 a.u. and 451000 a.u.
CCn1cnc2c(NCc3nc4cc(F)c(F)cc4[nH]3)nc(N3CCn4ncnc4C3)nc21 | 520000 a.u. and 454000 a.u. and 491000 a.u.
CC(=O)N1CCN(c2nc(NCc3nc4cc(Cl)c(Cl)cc4[nH]3)c3ncn(C)c3n2)CC1 | 388000 a.u. and 452000 a.u. and 150000 a.u.
CCn1cnc2c(NCc3nc4cc(Cl)c(Cl)cc4[nH]3)nc(N3CCN(C(=O)[C@H](C)NC(C)=O)CC3)nc21 | 391000 a.u. and 459000 a.u. and 437000 a.u.
CCn1cnc2c(NCc3nc4cc(Cl)c(Cl)cc4[nH]3)nc(N3CCC(NC(C)=O)CC3)nc21 | 439000 a.u. and 521000 a.u. and 470000 a.u.
CC(=O)N1CCN(c2nc(NCc3nc4cc(Cl)c(Cl)cc4[nH]3)c3ncn(-c4cnn(C)c4)c3n2)CC1 | 489000 a.u. and 526000 a.u. and 522000 a.u.
CCn1cnc2c(NCc3nc4cc(Cl)c(Cl)cc4[nH]3)nc(N3CCN(S(C)(=O)=O)CC3)nc21 | 314000 a.u. and 332000 a.u. and 298000 a.u.
CCn1cnc2c(NCc3nc4cc(Cl)c(Cl)cc4[nH]3)nc(N3CCN(C(C)=O)CC3)nc21 | 264000 a.u. and 248000 a.u. and 224000 a.u.
CCn1cnc2c(NCc3nc4cc(Cl)c(Cl)cc4[nH]3)nc(N3CCN(C(=O)CNC(C)=O)CC3)nc21 | 431000 a.u. and 414000 a.u. and 428000 a.u.
CCn1cnc2c(NCc3nc4ccc(F)c(F)c4[nH]3)nc(N3CCn4ncnc4C3)nc21 | 384000 a.u. and 479000 a.u. and 439000 a.u.
CCCCOc1nc(NCc2nc3cc(Cl)c(Cl)cc3[nH]2)c2ncn(CC)c2n1 | 680000 a.u. and 616000 a.u. and 523000 a.u.
CCn1cnc2c(NCc3nc4cc(Cl)c(Cl)cc4[nH]3)nc(N3CCN(Cc4ccncc4)CC3)nc21 | 356000 a.u. and 343000 a.u. and 353000 a.u.
CC(=O)N1CCN(c2nc(NCc3nc4cc(Cl)c(Cl)cc4[nH]3)c3ncn(C(C)C)c3n2)CC1 | 568000 a.u. and 540000 a.u. and 519000 a.u.
CCn1cnc2c(NCc3nc4cc(Cl)c(Cl)cc4[nH]3)nc(N3CCn4ncnc4C3)nc21 | 235000 a.u. and 236000 a.u. and 200000 a.u.
CCn1cnc2c(NCc3nc4cc(Cl)c(Cl)cc4[nH]3)nc(N3CCN(C(=O)c4cccnc4)CC3)nc21 | 134000 a.u. and 159000 a.u. and 132000 a.u.
CCn1cnc2c(NCc3nc4cc(Cl)c(Cl)cc4[nH]3)nc(N3CCN(C(=O)c4ccncc4)CC3)nc21 | 246000 a.u. and 228000 a.u. and 204000 a.u.
CCn1cnc2c(NCc3nc4cc(Cl)c(Cl)cc4[nH]3)nc(N3CCN(C(=O)c4ccccc4)CC3)nc21 | 374000 a.u. and 368000 a.u. and 311000 a.u.
CCn1cnc2c(NCc3nc4cc(Cl)c(Cl)cc4[nH]3)nc(N3CCN(c4ccccn4)CC3)nc21 | 673000 a.u. and 605000 a.u. and 555000 a.u.

Set 2 — technique: CellTiter-Glo
Compound: CCN1CCN(Cc2ccc(COc3c(-c4c(C)c(F)cc5[nH]ncc45)c(C4CC4)cc4c(N5C[C@@H]6C[C@H]5CN6)nc(OC5CCOCC5)nc34)cc2)C(=O)C1
cell line | concentration | time | relative to | viability
AsPC-1 (KRAS G12D) | 3 nM |  |  | 92.1% and 83.6% and 95.8%
AsPC-1 (KRAS G12D) | 10 µM |  |  | 0.056% and 0.041% and 0.031% and 0.011%
AsPC-1 (KRAS G12D) | 30 nM |  |  | 107% and 110% and 101% and 93.2%
A-375 (KRAS wild type) | 30 nM | 6 days | DMSO | 102% and 101% and 97% and 106%
AsPC-1 (KRAS G12D) | 100 nM |  |  | 65.4% and 75.1% and 68.4% and 71.9%
AsPC-1 (KRAS G12D) | 10 nM |  |  | 89% and 91.5% and 96.9% and 93%
A-375 (KRAS wild type) | 100 nM | 6 days | DMSO | 88.8% and 98.4% and 118% and 87.1%
AsPC-1 (KRAS G12D) | 1 nM |  |  | 88.1% and 88.8% and 84.8%

Set 3 — cell line: HCC1569; technique: in-cell western; item: CDK1 phospho-Thr14; concentration: 3333.33 nM
SMILES | pCDK1 (Thr14) level
Cc1ccc(O)c(C)c1-c1cnc2[nH]c(-c3cnc(N4CCC5(CC4)CC(CN4CCN(c6ccc(NC7CCC(=O)NC7=O)cc6F)CC4)C5)nc3)cc2c1C#N (stereo not drawn) | 149 RLU and 136 RLU
Cc1ccc(O)c(C)c1-c1cnc2[nH]c(-c3cnc(N4CCC(CN5CCN(c6ccc7c(c6F)CN(C6CCC(=O)NC6=O)C7=O)CC5)CC4)nc3)cc2c1C#N (stereo not drawn) | 146 RLU and 141 RLU
Cc1ccc(O)c(C)c1-c1cnc2[nH]c(-c3cnc(N)nc3)cc2c1C#N | 71.8% and 75.2%
Cc1ncc(-c2cc3c(C(F)(F)F)c(-c4c(C)ccc(O)c4C)cnc3[nH]2)cn1 | 66.9 RLU and 63.6 RLU
Cc1ccc(O)c(C)c1-c1cnc2[nH]c(-c3cnc(N4CCC(CCN5CCN(c6ccc(NC7CCC(=O)NC7=O)cc6F)CC5)CC4)nc3)cc2c1C#N (stereo not drawn) | 145 RLU and 154 RLU
Cc1ccc(O)c(C)c1-c1cnc2[nH]c(-c3cnc(N4CCC(CN5CCN(c6ccc7c(c6)CN(C6CCC(=O)NC6=O)C7=O)CC5)CC4)nc3)cc2c1C#N (stereo not drawn) | 103 RLU
Cc1ncc(-c2cc3c(C(N)=O)c(-c4c(C)ccc(O)c4C)cnc3[nH]2)cn1 | 29.5 RLU and 33.5 RLU
Cc1ncc(-c2cc3c(Cl)c(-c4c(C)ccc(O)c4C)cnc3[nH]2)cn1 | 66.4 RLU and 65.1 RLU

Set 4 — observed: binding; technique: competition with immobilised ligand; concentration: 1 µM
SMILES: COc1cc(-c2nc3ccc(C(=O)NCCCN(C)C)cc3n2C2CCC2)cc(OC)c1OC
target | remaining binding
Ribosomal protein S6 kinase alpha-6, N-terminal kinase domain (RPS6KA6, Homo sapiens, UniProt Q9UK32) | 91%
MAPK3 (Homo sapiens, UniProt P27361) | 97%
ZAP70 (Homo sapiens, UniProt P43403) | 90%
CSNK2A2 (Homo sapiens, UniProt P19784) | 100%
MAP3K15 (Homo sapiens, UniProt Q6ZN16) | 81%
WEE1 (Homo sapiens, UniProt P30291) | 100%
Tyrosine-protein kinase ABL1, phosphorylated (ABL1, Homo sapiens, UniProt P00519, Q252H) | 55%
Tyrosine-protein kinase ABL1, phosphorylated (ABL1, Homo sapiens, UniProt P00519, H396P) | 69%
PIKFYVE (Homo sapiens, UniProt Q9Y2I7) | 100%
PIK3CA (Homo sapiens, UniProt P42336, M1043I) | 74%
GSK3A (Homo sapiens, UniProt P49840) | 97%
RIPK2 (Homo sapiens, UniProt O43353) | 77%
DMPK (Homo sapiens, UniProt Q09013) | 94%
PKN1 (Homo sapiens, UniProt Q16512) | 100%
MARK1 (Homo sapiens, UniProt Q9P0L2) | 64%
LRRK2 (Homo sapiens, UniProt Q5S007, G2019S) | 97%
TNK1 (Homo sapiens, UniProt Q13470) | 92%
STK11 (Homo sapiens, UniProt Q15831) | 74%
CAMK1D (Homo sapiens, UniProt Q8IU85) | 96%
CRK2 (Plasmodium falciparum, UniProt P61075) | 37%

For quick reference, copied from above (set 2):
cell line | concentration | time | relative to | viability
AsPC-1 (KRAS G12D) | 30 nM |  |  | 107% and 110% and 101% and 93.2%
AsPC-1 (KRAS G12D) | 100 nM |  |  | 65.4% and 75.1% and 68.4% and 71.9%
AsPC-1 (KRAS G12D) | 1 nM |  |  | 88.1% and 88.8% and 84.8%
AsPC-1 (KRAS G12D) | 3 nM |  |  | 92.1% and 83.6% and 95.8%
AsPC-1 (KRAS G12D) | 10 nM |  |  | 89% and 91.5% and 96.9% and 93%
AsPC-1 (KRAS G12D) | 10 µM |  |  | 0.056% and 0.041% and 0.031% and 0.011%
A-375 (KRAS wild type) | 30 nM | 6 days | DMSO | 102% and 101% and 97% and 106%
